Experimental data from different studies.

O=C(c1cccnc1-c1ccncc1)N1CCC(O)(Cc2ccccc2)CC1  Tmax (healthy Japanese adults, plasma; oral, 100 mg twice daily, day 1, median): 45 min
O=C([O-])CCCCCCCNC(=O)c1ccccc1O.[Na+]  tmax (healthy postmenopausal women; oral, 300 mg, median, added: oral contraceptive plus oral semaglutide): 30 min
C[C@H]1CN(C(=O)CC#N)[C@]12CCN(c1ncnc3[nH]ccc13)C2  Tmax (healthy Japanese males, plasma; oral, 50 mg single dose): 60 min
CCOc1c([C@H](C)n2nc(C)c3c(N)ncnc32)cc(Cl)c(F)c1[C@@H]1CNC(=O)C1  Tmax median (patients, monotherapy; oral, 30 mg once daily, cycle 1 day 1): 30 min
Cc1nc(-c2ccc(OCC(C)C)c(C#N)c2)sc1C(=O)O  Tmax delay (LC-MS/MS; healthy subjects, plasma; oral, 40 mg, added: high-fat meal; reference: fasting): 40.2 min
CCCCC[C@H](O)CC[C@@H]1[C@H]2Cc3cccc(OCC(=O)O)c3C[C@H]2C[C@H]1O  Tmax (LC-MS/MS; Japanese PAH patients, no background therapy, plasma; inhaled, 54 µg, mean): 12 min
CO[C@H]1CC[C@H](N2C(=O)CNc3ncc(-c4ccc(C(C)(C)O)nc4)nc32)CC1  Tmax (patients, plasma; oral, 7.5 mg, day 15, median): 90 min
O=C(Nc1cnccc1Cl)N1CCN(Cc2ccc3c(c2)OC(F)(F)O3)CC1  tmax (median) (healthy young men, plasma; oral, 10 mg once daily, day 1): 105 min
C[C@@H](N)C1CCN(S(=O)(=O)c2cccc3cnccc23)CC1  tmax (healthy volunteers, fasted, plasma; oral, 25 mg): 45 min
C=CC(=O)NC1CCN(c2ncc3ncnc(Nc4ccc(Oc5ccc6c(c5)ncn6C)c(C)c4)c3n2)CC1  tmax (item: total radioactivity; healthy male volunteers, plasma; intravenous infusion, 100 µg, 15 min infusion, 14C microtracer, median): 14 min
N#CC[C@H](C1CCCC1)n1cc(-c2ncnc3[nH]ccc23)cn1  Tmax range (children, plasma; oral, after first dose, all dose levels): 60 to 240 min
CN(CCC(=O)O)C(=O)c1ccc2c(c1)CC[C@@H]1[C@@H]2CC[C@]2(C)C(c3cncc(F)c3)=CC[C@@H]12  Tmax (premenopausal women, plasma; 60 mg once daily, after day 14, multiple dose, median): 120 min
